Results collected from several papers.
“And” joins repeats or separate records; there may be more than shown. ± gives the spread as reported.
Chain of UniProt Q8TCC7 (whole entry, looked up): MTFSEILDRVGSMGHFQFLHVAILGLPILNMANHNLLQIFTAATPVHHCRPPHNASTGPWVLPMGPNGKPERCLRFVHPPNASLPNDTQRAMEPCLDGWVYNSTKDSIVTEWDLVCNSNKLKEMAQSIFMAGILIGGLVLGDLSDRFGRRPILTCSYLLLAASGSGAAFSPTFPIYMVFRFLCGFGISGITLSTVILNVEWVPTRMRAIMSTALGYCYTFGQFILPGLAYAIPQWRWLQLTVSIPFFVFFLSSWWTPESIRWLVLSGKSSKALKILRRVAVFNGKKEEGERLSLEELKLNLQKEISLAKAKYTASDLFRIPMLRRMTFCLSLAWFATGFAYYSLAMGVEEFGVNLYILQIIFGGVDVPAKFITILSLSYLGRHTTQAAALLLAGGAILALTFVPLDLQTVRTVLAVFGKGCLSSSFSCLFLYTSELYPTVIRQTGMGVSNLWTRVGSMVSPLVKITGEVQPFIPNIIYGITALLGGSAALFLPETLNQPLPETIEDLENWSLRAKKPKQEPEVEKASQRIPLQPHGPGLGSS
Chain of UniProt P42679 (whole entry, looked up): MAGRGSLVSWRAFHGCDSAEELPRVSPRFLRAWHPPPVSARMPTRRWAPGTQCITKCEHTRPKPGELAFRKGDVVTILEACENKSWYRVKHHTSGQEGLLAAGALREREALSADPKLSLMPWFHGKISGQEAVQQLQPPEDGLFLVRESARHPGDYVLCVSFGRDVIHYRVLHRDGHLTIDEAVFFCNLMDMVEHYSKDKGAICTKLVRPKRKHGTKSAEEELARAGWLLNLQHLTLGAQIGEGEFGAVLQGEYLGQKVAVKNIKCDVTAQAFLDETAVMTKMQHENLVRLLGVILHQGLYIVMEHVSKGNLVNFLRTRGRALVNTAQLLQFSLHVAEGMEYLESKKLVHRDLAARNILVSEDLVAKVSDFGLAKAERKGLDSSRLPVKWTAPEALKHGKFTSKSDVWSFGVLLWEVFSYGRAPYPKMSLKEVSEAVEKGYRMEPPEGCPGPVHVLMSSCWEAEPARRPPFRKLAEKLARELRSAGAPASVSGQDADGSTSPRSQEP
Chain of UniProt P09619 (whole entry, looked up): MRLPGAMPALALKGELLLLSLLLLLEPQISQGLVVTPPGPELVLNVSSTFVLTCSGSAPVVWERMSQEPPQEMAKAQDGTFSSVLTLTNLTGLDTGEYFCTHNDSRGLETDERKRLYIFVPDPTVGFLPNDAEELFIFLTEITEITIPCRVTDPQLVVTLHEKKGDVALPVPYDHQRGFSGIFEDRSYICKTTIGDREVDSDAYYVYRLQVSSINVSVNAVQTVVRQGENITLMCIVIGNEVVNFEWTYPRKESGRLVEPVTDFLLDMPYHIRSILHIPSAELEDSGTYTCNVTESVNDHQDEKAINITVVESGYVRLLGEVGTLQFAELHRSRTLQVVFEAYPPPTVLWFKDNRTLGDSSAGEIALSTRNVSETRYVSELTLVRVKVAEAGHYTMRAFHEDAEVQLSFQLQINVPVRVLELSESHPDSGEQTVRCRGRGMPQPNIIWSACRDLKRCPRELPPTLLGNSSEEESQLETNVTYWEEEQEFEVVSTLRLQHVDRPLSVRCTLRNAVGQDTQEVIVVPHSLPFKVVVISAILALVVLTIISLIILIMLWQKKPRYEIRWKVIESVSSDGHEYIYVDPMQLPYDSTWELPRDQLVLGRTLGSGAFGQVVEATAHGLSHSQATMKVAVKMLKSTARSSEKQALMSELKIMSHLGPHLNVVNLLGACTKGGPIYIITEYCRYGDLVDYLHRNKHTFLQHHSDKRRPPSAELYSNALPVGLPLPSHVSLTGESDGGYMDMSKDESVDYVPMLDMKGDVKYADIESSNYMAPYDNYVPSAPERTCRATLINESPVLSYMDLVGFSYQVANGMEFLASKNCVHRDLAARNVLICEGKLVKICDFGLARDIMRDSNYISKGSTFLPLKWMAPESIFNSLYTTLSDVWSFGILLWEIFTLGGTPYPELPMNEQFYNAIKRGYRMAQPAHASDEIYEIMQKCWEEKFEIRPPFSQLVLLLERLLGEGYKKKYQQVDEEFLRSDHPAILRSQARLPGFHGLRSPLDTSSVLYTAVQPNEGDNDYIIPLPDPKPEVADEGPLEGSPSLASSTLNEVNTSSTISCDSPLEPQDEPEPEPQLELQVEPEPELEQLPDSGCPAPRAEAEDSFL

With `COc1ccccc1-c1n[nH]c2nc(NC3CCN(C(=O)Cc4ccc(F)cc4F)CC3)ncc12` the relative abundance was 0.13 (bead binding, competition bead pull-down, measured: LINJ.09.0270; Leishmania donovani axenic amastigote extract; 10 µM; reference: vehicle).
`CC(C)[C@H]1NC(=O)C[C@H]2/C=C/CCSSC[C@@H](NC1=O)C(=O)N[C@H](Cc1cccc3ccccc13)C(=O)NCC(=O)O2` gave an inhibition of 1.7% (Hepatocyte growth factor receptor (MET, Homo sapiens, UniProt P08581, D1228H); enzyme activity, inhibitor; 10 µM).
For `CSCC[C@H](N)C(=O)N[C@@H](C)C(=O)N[C@@H](CCCNC(=N)N)C(=O)N[C@@H](CCCNC(=N)N)C(=O)N[C@@H](CC(=O)O)C(=O)N[C@@H](CCCCN)C(=O)N[C@H](C(=O)N[C@@H](CC(=O)O)C(=O)N[C@@H](Cc1ccccc1)C(=O)N[C@@H](C)C(=O)N[C@@H](CCCNC(=N)N)C(=O)N[C@@H](CCCNC(=N)N)C(=O)N[C@@H](CCCNC(=N)N)C(=O)N[C@@H](CCCNC(=N)N)C(=O)NCCCCCC(=O)NCCCCC(NC(=O)CCCCCNC(=O)[C@H](CCCNC(=N)N)NC(=O)[C@H](CCCNC(=N)N)NC(=O)[C@H](CCCNC(=N)N)NC(=O)[C@H](CCCNC(=N)N)NC(=O)[C@H](C)NC(=O)[C@H](Cc1ccccc1)NC(=O)[C@H](CC(=O)O)NC(=O)[C@@H](NC(=O)[C@H](CCCCN)NC(=O)[C@H](CC(=O)O)NC(=O)[C@H](CCCNC(=N)N)NC(=O)[C@H](CCCNC(=N)N)NC(=O)[C@H](C)NC(=O)[C@@H](N)CCSC)[C@@H](C)O)C(=O)NCCCCC(NC(=O)C(CCCCNC(=O)CCCCCNC(=O)[C@H](CCCNC(=N)N)NC(=O)[C@H](CCCNC(=N)N)NC(=O)[C@H](CCCNC(=N)N)NC(=O)[C@H](CCCNC(=N)N)NC(=O)[C@H](C)NC(=O)[C@H](Cc1ccccc1)NC(=O)[C@H](CC(=O)O)NC(=O)[C@@H](NC(=O)[C@H](CCCCN)NC(=O)[C@H](CC(=O)O)NC(=O)[C@H](CCCNC(=N)N)NC(=O)[C@H](CCCNC(=N)N)NC(=O)[C@H](C)NC(=O)[C@@H](N)CCSC)[C@@H](C)O)NC(=O)CCCCCNC(=O)[C@H](CCCNC(=N)N)NC(=O)[C@H](CCCNC(=N)N)NC(=O)[C@H](CCCNC(=N)N)NC(=O)[C@H](CCCNC(=N)N)NC(=O)[C@H](C)NC(=O)[C@H](Cc1ccccc1)NC(=O)[C@H](CC(=O)O)NC(=O)[C@@H](NC(=O)[C@H](CCCCN)NC(=O)[C@H](CC(=O)O)NC(=O)[C@H](CCCNC(=N)N)NC(=O)[C@H](CCCNC(=N)N)NC(=O)[C@H](C)NC(=O)[C@@H](N)CCSC)[C@@H](C)O)C(N)=O)[C@@H](C)O` (stereo partly drawn), “mean tissue distribution” read 1.33% (C57BL/6 mouse female, uterus; dose not given, 6 h; reference: total).
The AUC(0-last) of `CCCCCCCCCCCCCCCC(=O)N[C@@H](CCC(=O)NCCCC[C@H](NC(=O)[C@H](CC(=O)O)NC(=O)[C@H](CO)NC(=O)[C@@H](NC(=O)[C@H](Cc1ccccc1)NC(=O)[C@@H](NC(=O)CNC(=O)[C@H](CCC(N)=O)NC(=O)[C@H](C)NC(=O)[C@@H](Cc1ccc(O)cc1)NC(C)=O)[C@@H](C)O)[C@@H](C)O)C(=O)N[C@@H](CO)C(=O)N[C@@H](CCCCN)C(=O)N[C@@H](Cc1ccc(O)cc1)C(=O)N[C@@H](CC(C)C)C(=O)N[C@@H](CC(=O)O)C(=O)N[C@@H](CCC(=O)O)C(=O)N[C@@H](CCCNC(=N)N)C(=O)N[C@@H](C)C(=O)N[C@@H](C)C(=O)N[C@@H](CCC(N)=O)C(=O)N[C@@H](CC(=O)O)C(=O)N[C@@H](Cc1ccccc1)C(=O)N[C@H](C(=O)N[C@@H](CCC(N)=O)C(=O)N[C@@H](Cc1c[nH]c2ccccc12)C(=O)N[C@@H](CC(C)C)C(=O)N[C@@H](CC(C)C)C(=O)N[C@@H](CCC(=O)O)C(=O)NCC(=O)NCC(=O)N1CCC[C@H]1C(=O)N[C@@H](CO)C(=O)N[C@@H](CO)C(=O)NCC(=O)N[C@@H](C)C(=O)N1CCC[C@H]1C(=O)N1CCC[C@H]1C(=O)N1CCC[C@H]1C(=O)N[C@@H](CO)C(N)=O)C(C)C)C(=O)O` is reported as 1200 ng·h/mL (male cynomolgus monkey, plasma; subcutaneous, 0.0211 mg/kg).
For `Cc1cc(-c2ccc3ccccc3c2)nnc1NCCN1CCN(C)CC1`, the inhibition was 0% (Organic anion transporter 3 (SLC22A8, Homo sapiens, UniProt Q8TCC7); transporter uptake, inhibitor; 10 µM).
The inhibition of `CS(C)(=O)=Nc1ccc(-c2ccc(-c3nc4cc(O[C@@H]5CO[C@H]6[C@@H]5OC[C@H]6O)[nH]c4cc3F)cc2)cc1` is reported as 6% (Platelet-derived growth factor receptor beta (PDGFRB, Homo sapiens, UniProt P09619); enzyme activity, inhibitor; 10 µM).
For `CCCCCCCCCCCC(=O)C(C)C(=O)N1CCC[C@H]1C(=O)NC(C)(C)C(=O)NC(C)(C)C(=O)NC(C)(C)C(=O)N[C@](C)(CC)C(=O)NCCC(=O)N[C@@H](C)C(=O)N[C@](C)(CC)C(=O)N[C@@H](C)C(=O)N[C@@H](CC(C)C)C(=O)N[C@](C)(CC)C(=O)NCCC(=O)N[C@@H](C)C(=O)N[C@](C)(CC)C(=O)NCCC(=O)N[C@@H](C)C(=O)NC(C)(C)C(=O)NC(C)(C)C(=O)NC(C)(C)C(=O)N[C@@H](C)C(=O)N[C@@H](CC(=O)O)C(=O)O` (stereo partly drawn), “remaining intact peptide” read 31.9% and 35.7% and 36.5% (LC-MS; 50% pooled human serum; 40 µM, 300 min, pH 7.5, 37 °C; reference: 0 h).
`O=C1NC2(CC2)COc2ncc(F)cc2[C@H]2COCCN2c2ccn3ncc1c3n2` — result for “organ-to-body weight ratio”: 0.037 ± 0.004% (Sprague-Dawley rat, female, ovaries; oral, 2.5 mg/kg/day, 4 weeks dosing, end of recovery).
`COc1cc2c(cc1NC(=O)c1cncn1C)C[C@H]1[C@H]3CCCC[C@@]23CCN1C` gave an unbound fraction of 0.602 (equilibrium dialysis; mouse plasma; 5 µM, 6 h).
With `CN(C)[C@H]1C[C@@]23CC[C@@]4(O2)C(=CC[C@]2(C)[C@@H](c5ccc6ccncc6c5)CC[C@H]24)C=C3[C@@H](O)[C@@H]1O` the inhibition was 7.9% (Megakaryocyte-associated tyrosine-protein kinase (MATK, Homo sapiens, UniProt P42679); ATP probe labelling, inhibitor, KiNativ profiling; 1 µM).
The tumour-to-tissue ratio of `CC(C)C[C@@H](NC(=O)[C@@H](CCCNC(=N)N)NC(=O)[C@@H](Cc1c[nH]cn1)NC(=O)[C@@H](Cc1c[nH]c2ccccc12)NC(=O)[C@@H](Cc1c[nH]cn1)NC(=O)[C@@H](Cc1ccccc1)NC(=O)[C@H](NC(=O)[C@@H](Cc1ccc(O)cc1)NC(=O)CNC(=O)CNC(=O)CCOCCOCCOCCNC(=O)CN1CCN(CC(=O)O)CCN(CC(=O)O)CC1)[C@H](C)O)C(=O)N[C@H](CC(N)=O)C(=O)N1CCC[C@@H]1C(=O)O` [gallium-68 labelled] is reported as 0.62 ± 0.23 (male C57BL/6 mice; intravenous, 1.85 MBq, 60 min, added: GP12 blocking; reference: tumour over lung).
The AUC of `CC[C@H](C)[C@H](NC(=O)[C@H](Cc1ccc(O)cc1)NC(=O)[C@@H](NC(=O)[C@H](CCCNC(=N)N)NC(=O)[C@@H](N)CC(=O)O)C(C)C)C(=O)N[C@@H](Cc1c[nH]cn1)C(=O)N1CCC[C@H]1C(=O)O` is reported as 914 ± 204 µg·h/L (Beagle dog, plasma; sc, 10 mg/kg/day, day 0).
`CC(C)c1ccccc1/N=N/c1ccc2[nH]cc(CCN(C)C)c2c1`: “cis isomer at photostationary state” 83% (light irradiation; solution; added: light 385 nm).
The health score of `N=C(N)NCCC[C@H](NC(=O)[C@H](CCCNC(=N)N)NC(=O)[C@H](CCCNC(=N)N)NC(=O)[C@H](CCC(N)=O)NC(=O)[C@H](CCCNC(=N)N)NC(=O)[C@H](CCCNC(=N)N)NC(=O)[C@H](CCCCN)NC(=O)[C@H](CCCCN)NC(=O)[C@H](CCCNC(=N)N)NC(=O)CNC(=O)[C@H](Cc1ccc(O)cc1)NC(=O)[C@H](Cc1ccccc1)NC(=O)[C@H](Cc1ccccc1)NC(=O)[C@H](Cc1ccccc1)NC(=O)OCC1c2ccccc2-c2ccccc21)C(=O)O` is reported as 5 (C57BL/6 mice; intraperitoneal, 5 mg/kg, 48 h; direction not given).
`CCCC[C@H]1C(=O)N(C)[C@@H](CCCC)C(=O)N[C@@H](CCCNC(=O)CN2CCN(CC(=O)O)CCN(CC(=O)O)CCN(CC(=O)O)CC2)C(=O)N[C@H](C(=O)NCC(N)=O)CSCC(=O)N[C@@H](Cc2ccc(O)cc2)C(=O)N(C)[C@@H](C)C(=O)N[C@@H](CC(N)=O)C(=O)N2CCC[C@H]2C(=O)N[C@@H](Cc2c[nH]cn2)C(=O)N[C@@H](CC(C)C)C(=O)N(C)CC(=O)N[C@@H](Cc2c[nH]c3ccccc23)C(=O)N[C@@H](CO)C(=O)N[C@@H](Cc2c[nH]c3ccccc23)C(=O)N1C` [gallium-68 labelled] gave a tumour uptake of 4.09 ± 0.76 %ID/g (NOD/SCID mice, CHO-hPD-L1 xenograft, tumour; 10 min p.i.).
For `CC(C)=CCC/C(C)=C\CCn1cc(CC(P(=O)(O)O)P(=O)(O)O)nn1`, the concentration was 5750 ± 2850 ng/mL (mouse CD-1, bile; intravenous, 0.3 mg/kg, 8 h).
For `COc1ccc(CNc2ccc3c(c2)S(=O)(=O)C=C3)cc1`, the CD8+ cells was 10.8% (flow cytometry; male C57BL/6 mice, spleen; i.p., 5 mg/kg, 8 days; reference: CD45+ cells).
For `CC(C)C[C@H](NC(=O)[C@H](Cc1ccc(O)cc1)NC(=O)[C@H](Cc1c[nH]cn1)NC(=O)[C@H](CC(=O)O)NC(=O)[C@H](CC(C)C)NC(=O)[C@H](C)NC(=O)[C@H](CC(C)C)NC(=O)CNC(=O)CNC(=O)[C@@H](NC(=O)[C@@H](NC(=O)[C@H](CCCCN)NC(=O)CNC(=O)[C@@H](NC(=O)[C@H](CCCCN)NC(=O)[C@H](CCCCN)NC(=O)[C@H](C)NC(=O)[C@H](CCCCN)NC(=O)[C@H](CCCNC(=N)N)NC(=O)[C@H](Cc1ccccc1)NC(=O)[C@@H](NC(=O)[C@H](CO)NC(=O)[C@H](CCCCN)NC(=O)[C@H](Cc1c[nH]c2ccccc12)NC(=O)CN)C(C)C)C(C)C)[C@@H](C)O)C(C)C)C(N)=O`, “chronic toxic concentration” read 5 µM (zebrafish embryos 4 hpf, E3 medium; 24 h).
